{"data": "Experimental data gathered from unrelated publications", "note": "Each line is one published result; not all experiments were run side by side. “And” joins repeats or separate records; there may be more than shown. Numbers after ± are the reported error."}
{"Compound": "CC1=C[C@H](O/C=C2/C(=O)O[C@@H]3c4ccccc4C[C@H]23)OC1=O (racemic)", "organism": "Arabidopsis thaliana", "test system": "kai2-2 mutant, seedlings", "conditions": "1 µM", "quantity": "hypocotyl length", "result": "3.39 mm"}
{"Compound": "CN[C@H](CC(C)C)C(=O)N[C@H]1C(=O)N[C@@H](CC(N)=O)C(=O)N[C@H]2C(=O)N[C@H]3C(=O)N[C@H](C(=O)N[C@H](C(=O)O)c4cc(O)cc(O)c4-c4cc3ccc4O)[C@H](O)c3ccc(c(Cl)c3)Oc3cc2cc(c3O[C@@H]2O[C@H](CO)[C@@H](O)[C@H](O)[C@H]2O[C@H]2C[C@](C)(N)[C@H](O)[C@H](C)O2)Oc2ccc(cc2Cl)[C@H]1O", "organism": "Staphylococcus", "test system": "MRSE-37, mouse systemic infection", "conditions": "intravenous", "scale": "survival", "quantity": "ED50", "result": "13.1 mg/kg"}
{"Compound": "c1ccc(CSc2nc3ccc(-c4ccccc4)cc3cc2CNCc2ccc(CN3CCCC3)cc2)cc1", "organism": "Acinetobacter baumannii", "assay": "NADH-driven proton pumping, ACMA quenching", "test system": "inverted membrane vesicles", "conditions": "32 µg/mL", "quantity": "inhibition", "result": "95%"}
{"Compound": "Cc1cc(OC(C)C)ccc1C(=O)C(C)(C)NC(=O)c1sccc1C", "organism": "Botrytis cinerea", "assay": "germ tube elongation", "test system": "B05.10", "conditions": "0.003 µg/mL", "quantity": "inhibition", "result": "14.9 ± 16.2%"}
{"Compound": "CN[C@H](CC(C)C)C(=O)N[C@H]1C(=O)N[C@@H](CC(N)=O)C(=O)N[C@H]2C(=O)N[C@H]3C(=O)N[C@H](C(=O)N[C@H](C(=O)O)c4cc(O)cc(O)c4-c4cc3ccc4O)[C@H](O)c3ccc(c(Cl)c3)Oc3cc2cc(c3O[C@@H]2O[C@H](CO)[C@@H](O)[C@H](O)[C@H]2O[C@H]2C[C@](C)(N)[C@H](O)[C@H](C)O2)Oc2ccc(cc2Cl)[C@H]1O", "organism": "Streptococcus pyogenes", "test system": "ATCC 19615", "conditions": "1 strain", "quantity": "MBC", "result": "1 µg/mL"}
{"Compound": "Cc1cc(C)c2sc(NC(=O)c3cc4ccccc4o3)nc2n1", "organism": "Dengue virus 2", "assay": "cytopathic effect, neutral red uptake", "test system": "Huh-7, New Guinea C", "quantity": "EC50", "result": "> 32000 nM"}
{"Compound": "Nc1nc2c(ncn2COCCO)c(=O)[nH]1", "organism": "herpes simplex virus 2", "assay": "viral replication", "test system": "HEL cells, G", "quantity": "EC50", "result": "1200 nM"}
{"Compound": "CC1(C)S[C@@H]2[C@H](NC(=O)[C@H](N)c3ccccc3)C(=O)N2[C@H]1C(=O)O", "organism": "Enterococcus faecium", "assay": "agar dilution", "test system": "vancomycin-intermediate", "conditions": "25 isolates", "quantity": "MIC90", "result": "> 128 µg/mL"}
{"Compound": "c1ccc(CSc2nc3ccccc3cc2CNCc2ccc(CN3CCCC3)cc2)cc1", "organism": "Acinetobacter baumannii", "assay": "NADH-driven proton pumping, ACMA quenching", "test system": "inverted membrane vesicles", "conditions": "32 µg/mL", "quantity": "inhibition", "result": "90%"}
{"Compound": "CCn1c(=O)c(-c2cc[nH]n2)cc2c(C)nc(N)nc21", "organism": "Echovirus 11", "assay": "viral replication, RT-qPCR", "test system": "HeLa", "conditions": "concentration not given, 20 h", "quantity": "viral RNA level", "result": "decreased"}
{"Compound": "CC(=O)NC[C@H]1CN(c2ccc(N3CCOCC3)c(F)c2)C(=O)O1", "organism": "Streptococcus pneumoniae", "quantity": "MIC50", "result": "0.5 µg/mL"}
{"Compound": "CCOC(=O)c1c(C)nc(NCCCNc2ccnc3cc(Cl)ccc23)nc1-c1ccccc1", "organism": "feline herpesvirus", "assay": "viral replication", "test system": "CRFK", "quantity": "EC50", "result": "> 4000 nM"}
{"Compound": "C[C@@H](O)[C@H]1C(=O)N2C(C(=O)O)=C(SCCN=CN)C[C@H]12", "organism": "Acinetobacter baumannii", "test system": "0403, female ICR mice, peritonitis, peritoneal fluid", "conditions": "dose not given", "quantity": "bacterial load", "result": "3.6 log CFU and 3.98 log CFU and 3.48 log CFU and 3.37 log CFU and 4.34 log CFU and 3 log CFU"}
{"Compound": "CN1CCN(CCNCc2cc3ccccc3nc2SCc2ccccc2)CC1", "organism": "Acinetobacter baumannii", "assay": "NADH-driven proton pumping, ACMA quenching", "test system": "inverted membrane vesicles", "conditions": "32 µg/mL", "quantity": "inhibition", "result": "85%"}
{"Compound": "CC(C)n1ncc2c(C(=O)NCC3(C)CNC3)cc(C3CC3)nc21", "organism": "coxsackievirus B3", "assay": "CPE", "test system": "Vero", "conditions": "0.5 µM", "quantity": "cell protection", "result": "57.7% and 59.3%"}
{"Compound": "COc1cc(C#CC(=O)c2ccccc2)ccc1O", "organism": "Pseudomonas aeruginosa", "assay": "RT-qPCR, item: lasB", "test system": "biofilm cells", "conditions": "10 µM, 24 h", "scale": "reference: untreated", "quantity": "mRNA level", "result": "21%"}
{"Compound": "COC(=O)[C@@H](CCSC)NCc1cc2ccccc2nc1SC", "organism": "Pseudomonas aeruginosa", "conditions": "16 µg/mL, together with: pentamidine 50 µM", "scale": "reference: control", "quantity": "growth", "result": "95.2%"}
{"Compound": "C=C[C@]1(C)C[C@@H](OC(=O)CS[C@@H]2C[C@H]3CC[C@@H](C2)N3C)[C@]2(C)[C@H](C)CC[C@]3(CCC(=O)[C@H]32)[C@@H](C)[C@@H]1O", "organism": "Enterococcus faecium", "assay": "agar dilution", "test system": "vancomycin-intermediate", "conditions": "25 isolates", "quantity": "MIC90", "result": "> 128 µg/mL"}
{"Compound": "CC1=CC(=O)CC(C)(C)[C@@]1(O)/C=C/C(C)=C\\C(=O)O", "organism": "Arabidopsis thaliana", "test system": "Col-0 wild type, seeds", "conditions": "1 µM", "quantity": "number of germinated seeds", "result": "9 and 7 and 6"}
{"Compound": "N=C(N)c1ccc(OCc2cc(COc3ccc(C(=N)N)cc3)cc(-c3ccccc3)c2)cc1", "organism": "Escherichia coli", "assay": "checkerboard", "test system": "mcr-2 polymyxin-resistant", "conditions": "unit not given, together with: rifampicin", "scale": "lower = stronger synergy", "quantity": "FICI", "result": 0.047}
{"Compound": "COC[C@H]1O[C@@H]2O[C@@H]3[C@@H](OC)[C@@H](OC)[C@@H](O[C@@H]4[C@@H](OC)[C@@H](OC)[C@@H](O[C@@H]5[C@@H](OC)[C@@H](OC)[C@@H](O[C@@H]6[C@@H](OC)[C@@H](OC)[C@@H](O[C@@H]7[C@@H](OC)[C@@H](OC)[C@@H](O[C@@H]1[C@@H](OC)[C@H]2OC)O[C@@H]7COC)O[C@@H]6COC)O[C@@H]5COC)O[C@@H]4COC)O[C@@H]3COC", "organism": "Escherichia coli", "assay": "LuxR reporter, antagonist", "test system": "DH5α sensor strain", "conditions": "4 µM, together with: OHHL 200 nM", "quantity": "inhibition", "result": "1 ± 1%"}
{"Compound": "CC1(F)CN(C(=O)Cn2c(=O)c(C(=O)NCc3ccc(Cl)cc3)cc3nc(N4CCNC4=O)cnc32)C1", "organism": "herpes simplex virus 2", "assay": "viral cytopathic effect", "test system": "Vero, G", "conditions": "120 h", "quantity": "EC50", "result": "850 nM"}
{"Compound": "Cc1c2c(nn1C)CSCc1cc(n(C)n1)CSc1cc(c3ccccc3c1)OCCCc1c(C(=O)O)n(C)c3c-2c(Cl)ccc13", "organism": "Enterococcus faecium", "assay": "broth microdilution MIC", "conditions": "12.5 µM", "quantity": "number of isolates", "result": 10}
{"Compound": "CC(=O)Oc1ccccc1C(=O)Nc1ncc([N+](=O)[O-])s1", "organism": "Cryptosporidium parvum", "test system": "HCT-8", "conditions": "3 x EC90, 0 h", "scale": "reference: DMSO control", "quantity": "parasite number", "result": "93.3% and 109% and 101% and 96.8%"}
{"Compound": "Nc1nc(-c2ccccc2)nc2[nH]nc(Nc3ccc(C(F)(F)F)cc3)c12", "organism": "coxsackievirus B3", "test system": "31-1-93, NMRI mice, CVB3 chronic myocarditis", "conditions": "oral, 100 mg/kg twice daily, day 1, dosed days 1 to 7, score scale 0 to 7", "scale": "direction not given", "quantity": "clinical score", "result": 0}
{"Compound": "COC(=O)[C@H](Cc1c[nH]c2ccccc12)NCc1cc2ccccc2nc1OC", "organism": "Pseudomonas aeruginosa", "conditions": "4 µg/mL, without pentamidine", "scale": "reference: control", "quantity": "growth", "result": "96.8%"}
{"Compound": "CCc1nc2[nH]c(=O)n(O)c(=O)c2s1", "organism": "Echinochloa crus-galli", "assay": "glasshouse pot", "conditions": "750 g/ha, 21 days, pre-emergence", "quantity": "inhibition", "result": "15.7%"}
{"Compound": "COC[C@H]1O[C@@H]2O[C@H]3[C@H](OC)[C@@H](OC)[C@@H](O[C@H]4[C@H](OC)[C@@H](OC)[C@@H](O[C@H]5[C@H](OC)[C@@H](OC)[C@@H](O[C@H]6[C@H](OC)[C@@H](OC)[C@@H](O[C@H]7[C@H](OC)[C@@H](OC)[C@@H](O[C@H]8[C@H](OC)[C@@H](OC)[C@@H](O[C@H]1[C@H](OC)[C@H]2OC)O[C@@H]8COC)O[C@@H]7COC)O[C@@H]6COC)O[C@@H]5COC)O[C@@H]4COC)O[C@@H]3COC", "organism": "Escherichia coli", "assay": "LuxR reporter, agonist", "test system": "DH5α sensor strain", "conditions": "4 µM", "quantity": "bioluminescence", "result": "838 ± 25 RLU"}
{"Compound": "COC(=O)[C@H](Cc1ccc(O)cc1)NCc1cc2ccccc2nc1SC", "organism": "Pseudomonas aeruginosa", "conditions": "16 µg/mL, together with: pentamidine 50 µM", "scale": "reference: control", "quantity": "growth", "result": "97.3%"}
{"Compound": "C[C@]12CC[C@@H]3c4ccc(O)cc4CC[C@H]3[C@@H]1CC[C@@H]2O", "organism": "Arabidopsis thaliana", "assay": "qRT-PCR, item: RD29B", "test system": "estradiol-inducible CLE5 line, seedlings", "conditions": "1 µM, β-estradiol induced, unit not given", "scale": "reference: mock", "quantity": "mRNA level", "result": "39.4 and 35.7 and 36.9 and 24.8 and 28.7 and 32.9"}
{"Compound": "N=C(N)c1ccc(OCCC(CCOc2ccc(C(=N)N)cc2)c2ccccc2)cc1 (stereo not shown)", "organism": "Escherichia coli", "assay": "checkerboard", "test system": "mcr-1 polymyxin-resistant", "conditions": "concentration not given, 20 h, together with: rifampicin", "quantity": "MIC of compound in combination", "result": "12.5 µg/mL"}
{"Compound": "O=C(N1CCc2ccccc21)n1ccnn1", "organism": "Arabidopsis thaliana", "test system": "atd14-1 mutant, seedlings", "conditions": "5 µM, continuous red light, together with: 1 µM (±)-GR24", "quantity": "hypocotyl length", "result": "1.72 mm and 4.31 mm and 2.33 mm and 2.29 mm and 3.01 mm and 2.41 mm"}
{"Compound": "C=C[C@]1(C)C[C@@H](OC(=O)CSCCN(CC)CC)[C@]2(C)[C@H](C)CC[C@]3(CCC(=O)[C@H]32)[C@@H](C)[C@@H]1O", "organism": "Mycoplasma gallisepticum", "test system": "infected chickens", "conditions": "intramuscular, 40 mg/kg, score scale 0 to 4", "scale": "direction not given", "quantity": "air sac lesion score", "result": 1.88}
{"Compound": "C[C@@H]1[C@H](O)[C@@H](C)/C=C/C=C/C=C/C=C/C=C/C=C/C=C/[C@H](O[C@@H]2O[C@H](C)[C@@H](O)[C@H](N)[C@@H]2O)C[C@@H]2O[C@](O)(C[C@@H](O)C[C@@H](O)[C@H](O)CC[C@@H](O)C[C@@H](O)CC(=O)O[C@H]1C)C[C@H](O)[C@H]2C(=O)O", "organism": "Aspergillus fumigatus", "assay": "XTT, preformed biofilm", "test system": "Af 293", "conditions": "2 × MIC, 24 h", "quantity": "biofilm mass reduction", "result": "65 to 68%"}
{"Compound": "CCOC(=O)c1c(C)nc(NCCCCNc2ccnc3cc(Cl)ccc23)nc1C", "organism": "feline herpesvirus", "assay": "viral replication", "test system": "CRFK", "quantity": "EC50", "result": "> 4000 nM"}
{"Compound": "CC[C@H]1OC(=O)[C@H](C)[C@@H](O[C@H]2C[C@@](C)(OC)[C@@H](O)[C@H](C)O2)[C@H](C)[C@@H](O[C@@H]2O[C@H](C)C[C@H](N(C)C)[C@H]2O)[C@](C)(O)C[C@@H](C)/C(=N\\OCOCCOC)[C@H](C)[C@@H](O)[C@]1(C)O", "organism": "Streptococcus agalactiae", "test system": "25 clinical isolates", "quantity": "MIC50", "result": "2 µg/mL"}
{"Compound": "O=c1[nH]c2ncsc2c(=O)n1O", "organism": "Echinochloa crus-galli", "assay": "glasshouse pot", "conditions": "750 g/ha, 21 days, post-emergence", "quantity": "inhibition", "result": "0%"}
